# Measurements pooled from the literature.
# Numbered parts are unrelated; each lists some results of a single study. Several values in a cell are separate wells, animals, samples, runs or records.

# Block 1
# Target: Prothrombin, mature alpha-thrombin (F2, Homo sapiens, UniProt P00734)
# Technique: aptamer microarray, sandwich
# Molecule type: DNA with 2'F-ANA
# Matrix: in vitro
# Tested at: 200 nM
# Setting: whole 15-mer aptamer, many near background
# With: Cy3 exosite-II aptamer, 400 nM
# Direction: higher = stronger binding
# Oligonucleotide: GGTTGGTGTGGTTGG
Modification,mean fluorescence intensity [a.u.]
2'F-ANA at 1 2 5 8 10 11 12 13,47.2
2'F-ANA at 1 2 4 5 6 10 12 13,47.7
2'F-ANA at 2 5 6 7 10 13 15,45
2'F-ANA at 4 5 7 9 13 14,44.2
2'F-ANA at 3 4 8 9 13 15,583
2'F-ANA at 3 5 6 7 8 9 10 15,66.6

# Block 2
# Target: Sal-like protein 4, full length isoform A (SALL4, Homo sapiens, UniProt Q9UJQ4, residues 1-1053)
# Sequence of UniProt Q9UJQ4 (whole entry, looked up): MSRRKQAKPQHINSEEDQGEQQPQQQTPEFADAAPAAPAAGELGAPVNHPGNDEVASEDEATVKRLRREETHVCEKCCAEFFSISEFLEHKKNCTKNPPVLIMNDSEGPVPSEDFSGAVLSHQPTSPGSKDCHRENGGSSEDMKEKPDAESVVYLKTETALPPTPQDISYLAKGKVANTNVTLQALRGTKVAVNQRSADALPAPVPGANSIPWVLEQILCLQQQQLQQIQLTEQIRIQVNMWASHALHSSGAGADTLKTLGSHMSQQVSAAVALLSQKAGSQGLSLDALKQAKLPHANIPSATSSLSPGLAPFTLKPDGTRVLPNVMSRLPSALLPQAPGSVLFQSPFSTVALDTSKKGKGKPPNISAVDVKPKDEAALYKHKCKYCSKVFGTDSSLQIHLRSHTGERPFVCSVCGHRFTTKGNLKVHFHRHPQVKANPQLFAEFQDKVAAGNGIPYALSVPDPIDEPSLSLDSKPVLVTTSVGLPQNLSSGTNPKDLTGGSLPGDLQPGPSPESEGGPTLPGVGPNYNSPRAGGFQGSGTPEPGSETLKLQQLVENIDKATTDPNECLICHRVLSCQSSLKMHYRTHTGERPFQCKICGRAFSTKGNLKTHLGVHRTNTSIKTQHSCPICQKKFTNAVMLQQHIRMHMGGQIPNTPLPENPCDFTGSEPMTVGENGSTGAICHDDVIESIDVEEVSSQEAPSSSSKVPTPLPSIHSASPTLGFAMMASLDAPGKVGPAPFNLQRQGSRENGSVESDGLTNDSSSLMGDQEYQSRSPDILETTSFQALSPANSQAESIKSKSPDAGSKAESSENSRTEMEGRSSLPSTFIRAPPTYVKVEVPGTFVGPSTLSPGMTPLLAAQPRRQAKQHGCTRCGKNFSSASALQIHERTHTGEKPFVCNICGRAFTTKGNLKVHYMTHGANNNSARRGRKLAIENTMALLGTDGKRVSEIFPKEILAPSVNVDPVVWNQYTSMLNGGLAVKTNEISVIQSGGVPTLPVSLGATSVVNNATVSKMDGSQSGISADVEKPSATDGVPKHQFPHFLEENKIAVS
# Technique: universal PBM
# Molecule type: double-stranded DNA, one strand shown
# Matrix: in vitro
# Tested at: 600 nM
# Setting: 8-mer, flanks averaged, mean of replicates
# Direction: higher = stronger binding
Oligonucleotide,E-score
ACTGTGAC,-0.0288
AAACTGAT,0.0956
ACACACAA,0.177
CAGTTGGC,-0.16

# Block 3
# Target: Histone acetyltransferase KAT6A, winged helix 1, GST fusion (KAT6A, Homo sapiens, UniProt Q92794, residues 1-85)
# Technique: protein binding microarray
# Molecule type: double-stranded DNA, one strand shown
# Matrix: in vitro
# Tested at: not given
# Setting: 8-mer, flanks averaged, mean of 2 arrays, mostly near background
# Relative to: not given
# Direction: higher = stronger binding
# Target sequence (chain): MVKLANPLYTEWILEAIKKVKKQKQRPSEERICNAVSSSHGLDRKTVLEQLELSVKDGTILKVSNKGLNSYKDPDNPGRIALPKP
Oligonucleotide,E-score
AACGGTGC,0.087
CGACACGA,-0.095
ATTAGTGC,-0.132
AGCGTTAC,0.0556
CGCGTGAC,0.314

# Further values, each from its own experiment
Molecule,target,assay,system,conditions,scale,endpoint,value
"PhoQ, residues 284 288 289 292 302 303 SMMNNA","PhoP, residues 12 14 15 18 19 LWHCS (Escherichia coli, UniProt P23836)","Sort-seq, refers to: YFP reporter",E. coli,"PhoQ-PhoP variant library, with: 10 µM Mg2+","relative to: high Mg2+ state, higher = stronger signaling",fold induction,17.3 and 7.02

# For quick reference, copied from above (block 3):
Oligonucleotide,E-score
AGCGTTAC,0.0556
